Measured values gathered from unrelated publications.
Parts stem from different laboratories: compare values within a part only. Changes are numbered by the printed parent chain.

Series 1 — technique: protein-binding microarray; molecule type: double-stranded DNA, one strand shown; sample: in vitro; tested at: 940 nM top; setting: 60-bp whole probe; with: salmon DNA 0.4 mg/ml; reference: random background probes; direction: higher = stronger binding; constant ends, left off below: GCCTAGCAC … GTCTTGATTCGCTTGACGCTGCTG
Target: Interferon regulatory factor 5, full length, phosphomimetic (IRF5, Homo sapiens, UniProt Q13568-2, residues 1-514, S451D/S453D/S456D/S462D)
`GTAGGACTGGACACTGGGTTAGTGCTA` — result for “fitted relative affinity”: -0.124 z-score.
`TCATATAGGTTGTTTCTAACTGTGCTA` — result for “fitted relative affinity”: 0.741 z-score.
`GTCGGTATCGGGTATCGGGACGTGCTA` — result for “fitted relative affinity”: 7.09 z-score.
Under “fitted relative affinity”, `TTAGGTATCGGGTTTCGATTAGTGCTA` is recorded as 7.38 z-score.
`TTAGGTTTCGAGACTGGGTTAGTGCTA`: “fitted relative affinity” 7.12 z-score.
For `TCACCGTTTCTTCTAGAACTGTGCTAG`, “fitted relative affinity” read 0.505 z-score.
Under “fitted relative affinity”, `GACGGCTTCCTTATCCTGACGTGCTAG` is recorded as 0.248 z-score.
Under “fitted relative affinity”, `CTTTGTTTTTTTCTATATGCGTGCTAG` is recorded as 1.56 z-score.
For `TTAGGAATGGGACTGGGTTAGTGCTAG`, “fitted relative affinity” read -0.309 z-score.
Under “fitted relative affinity”, `GACGGACTGCTGCTGCTGACGTGCTAG` is recorded as -0.756 z-score.
`TTAGGTTCCTGTTTCGGTTAGTGCTAG` — result for “fitted relative affinity”: 5.26 z-score.
`TTAGGTTTCGGTTCCGGTTTGTGCTAG`: “fitted relative affinity” 15.2 z-score.
For `TCATTCCTAATTCTCTTACTGTGCTAG`, “fitted relative affinity” read 1.18 z-score.
`TCCTTCCACCATCTGATCAGGTGCTAG` — result for “fitted relative affinity”: 1.02 z-score.
Under “fitted relative affinity”, `TGAGATTTCAGTTCCGATTAGTGCTAG` is recorded as 1.58 z-score.
Under “fitted relative affinity”, `TTAGATATCGGGACTGGCTTAGTGCTA` is recorded as -0.0536 z-score.
For `TTAGCACTGAGACTGGATTAGTGCTAG`, “fitted relative affinity” read -0.4 z-score.
`TTAGGCATCCTACTGCTTTAGTGCTAG`: “fitted relative affinity” -0.169 z-score.
`TTTGGTATCGGGACTGGGTTAGTGCTA`: “fitted relative affinity” 7.34 z-score.
`TCAGTTTTTGCTTTCTTACTGTGCTAG` — result for “fitted relative affinity”: 1.53 z-score.
For `AGAGCTTGTAGCCATCTTTGGTGCTAG`, “fitted relative affinity” read -0.534 z-score.
`TTAGGTTTCGACTTTCGGGTAGTGCTA` — result for “fitted relative affinity”: 9.15 z-score.
`TCAATTATTGTTTCCTCACTGTGCTAG`: “fitted relative affinity” 0.761 z-score.

Series 2 — technique: RNA Bind-n-Seq; molecule type: RNA; sample: in vitro; tested at: 1 µM; setting: whole 134-nt RNA, ends assumed; with: 150 mM KCl; reference: input library; direction: higher = stronger binding
Target: Ras GTPase-activating protein-binding protein 1, C-terminal RGG region (G3BP1, Homo sapiens, UniProt Q13283)
Chain of UniProt Q13283 (whole entry, looked up): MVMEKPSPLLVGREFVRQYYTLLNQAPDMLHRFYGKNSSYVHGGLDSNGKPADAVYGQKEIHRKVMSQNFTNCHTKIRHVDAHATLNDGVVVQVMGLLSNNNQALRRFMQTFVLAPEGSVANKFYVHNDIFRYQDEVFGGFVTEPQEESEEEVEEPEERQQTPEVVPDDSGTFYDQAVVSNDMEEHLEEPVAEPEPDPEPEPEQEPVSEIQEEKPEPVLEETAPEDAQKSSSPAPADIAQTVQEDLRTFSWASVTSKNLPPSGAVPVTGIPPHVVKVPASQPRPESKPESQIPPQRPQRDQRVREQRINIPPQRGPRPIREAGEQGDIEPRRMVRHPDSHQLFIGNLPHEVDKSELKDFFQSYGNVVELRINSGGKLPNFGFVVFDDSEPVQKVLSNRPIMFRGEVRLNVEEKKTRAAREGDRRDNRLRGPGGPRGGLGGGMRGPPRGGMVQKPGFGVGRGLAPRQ
With `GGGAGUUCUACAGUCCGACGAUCGUCCUGUGCUACACAUCGUAUGUACCGAAUCGGCCCCCCGGCCCCCCGGCCCCCCGGGAAAGUAUUAUGUUACGCCGUUCGGAUCUGCACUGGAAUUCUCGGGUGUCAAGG` the log2 enrichment was -1.09.
`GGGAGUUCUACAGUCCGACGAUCUGUGCUACACAUCGUAUGUACCGAAUCGGGGCCCCCCCGGGCCCCCCCGGGGCCCCCCCGGGAAAGUAUUAUGUUACGCCGUUCGGAUCUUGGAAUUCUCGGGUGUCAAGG` has a log2 enrichment of -2.51.
`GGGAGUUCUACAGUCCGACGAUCCACAGACAACACGCACAAACACAGACACAGAGGGAAGGGGUUGGGAUGGGGACAGGGUGCACAGCAGGGCGGGGUAGGACCCCAGCCCCUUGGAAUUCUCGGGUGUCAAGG` has a log2 enrichment of -0.335.
`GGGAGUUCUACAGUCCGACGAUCUGGCCCUGGUGGCAUGCGGGGAGUAAGAGGUGGCCUCAUGGAUCGUGGUGGUCCCGGUGGAAUGUUCAGAGGUGGCCGUGGUGGAGACAGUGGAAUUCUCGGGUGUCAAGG` gave a log2 enrichment of 2.59.
With `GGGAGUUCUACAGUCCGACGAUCCCUGUGCUACACAUCGUAUGUACCGAAUCGGCCCCCCCGGGGCCCCCCCGGGCCCCCCCGGAAAGUAUUAUGUUACGCCGUUCGGAUCUGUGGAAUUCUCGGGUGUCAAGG` the log2 enrichment was -1.55.
For `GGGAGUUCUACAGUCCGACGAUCUCAAGUCCUGUGCUACACAUCGUAUGUACCGAAUCGGGCCGGGGCCGGGCCGGGGAAAGUAUUAUGUUACGCCGUUCGGAUCUGCACUUCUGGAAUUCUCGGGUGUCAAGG`, the log2 enrichment was -0.0584.
`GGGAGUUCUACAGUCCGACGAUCCCUCAAGUCCUGUGCUACACAUCGUAUGUACCGAAUCGGUGGUUUUUGGUGGAAAGUAUUAUGUUACGCCGUUCGGAUCUGCACUUCCAGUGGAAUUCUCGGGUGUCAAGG` gave a log2 enrichment of -0.574.
`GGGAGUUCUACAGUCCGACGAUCUAACUUUAGAGGAGGAUCUGAAGGAUAUGGCAGUGGACGUGGAUUUGGGGAUGGCUAUAAUGGGUAUGGAGGAGGACCUGGAGGUGGCAAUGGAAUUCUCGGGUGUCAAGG` has a log2 enrichment of -1.34.
`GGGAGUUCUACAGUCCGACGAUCUGUGUGUUAUAUAUUUAUUUUUAAUUGCAGAUGACAGGAUUGGACAUUGAGAAGGACCAGAUUAUUGAGAUGGCCUGUCUGAUAACUGACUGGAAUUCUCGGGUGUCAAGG` has a log2 enrichment of -2.48.
With `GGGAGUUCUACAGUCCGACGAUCAGUCCUGUGCUACACAUCGUAUGUACCGAAUCGGGGAAAAAGGGGAAAGGGGAGGGGAAAGUAUUAUGUUACGCCGUUCGGAUCUGCACUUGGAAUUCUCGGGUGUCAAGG` the log2 enrichment was 2.38.

Series 3 — target: CCNB2, cyclin fold, Cln2 fusion (human); technique: yeast growth competition, sequencing; sample: yeast; setting: strong parent motif; reference: not given; direction: higher = stronger binding
Starting sequence: MICAL3 docking peptide (human); LQLRRQLSFSEDS
`L3W`: “normalised enrichment score” 0.323.
Under “normalised enrichment score”, `E11D` is recorded as 3.55.
Under “normalised enrichment score”, `R5K` is recorded as 1.59.
`S10D`: “normalised enrichment score” 2.87.
`S10Q` — result for “normalised enrichment score”: 1.36.
For `R4H`, “normalised enrichment score” read 0.67.
For `R4F`, “normalised enrichment score” read 1.41.
For `R4V`, “normalised enrichment score” read 2.16.
For `S8D`, “normalised enrichment score” read 2.76.
`F9I`: “normalised enrichment score” -0.0569.
For `Q6M`, “normalised enrichment score” read 2.05.
`S8H`: “normalised enrichment score” 1.82.
`Q6V` — result for “normalised enrichment score”: 2.75.
`L7E` — result for “normalised enrichment score”: 0.326.
`F9N`: “normalised enrichment score” -0.089.
`Q6N` — result for “normalised enrichment score”: 1.57.
For `D12F`, “normalised enrichment score” read 2.58.
`Q2M`: “normalised enrichment score” 3.1.
`S10V`: “normalised enrichment score” 1.03.
`S10I`: “normalised enrichment score” 1.04.
For `L7Y`, “normalised enrichment score” read 0.263.
Under “normalised enrichment score”, `L3E` is recorded as 0.0154.
For `R5D`, “normalised enrichment score” read 0.0536.
`E11S`: “normalised enrichment score” 2.75.
`Q6S`: “normalised enrichment score” 2.4.

Series 4 — technique: RNA Bind-n-Seq; molecule type: RNA; sample: in vitro; tested at: 365 nM; reference: no-protein control; direction: higher = stronger binding
Target: RNA binding protein fox-1 homolog 2, RRM domain, GST-SBP tag (RBFOX2, Homo sapiens, UniProt O43251-10, residues 100-194)
Setting: natural RNA segment, single round, ends assumed
Construct (chain): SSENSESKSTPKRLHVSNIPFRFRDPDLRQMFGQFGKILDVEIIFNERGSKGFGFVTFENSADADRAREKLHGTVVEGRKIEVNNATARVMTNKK
For `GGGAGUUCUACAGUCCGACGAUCCCUGGUUCCUUUCCAGCUGGUUGUGGAAGUAAUGGCUAACAUCCUUCAGCUGACUUUGUCUACAAGGAUUAUUAGCAAAUUCUGUAGGAGCAAGCAUGUCUGACCUUAACUGGAAUUCUCGGGUGCCAA`, “RBNS enrichment (R)” read 1.87.
`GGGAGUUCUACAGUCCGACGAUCAGCAGCCCCUAAGUGGGCCUCUAGAGCUGAAGACACACCCCUGGUGCCACCAGCCUGUGUGGCCCCUCCCCUUGGCCCUAGCUCCCAGCACCUCCCUACCCUUCAGCAGCUGGAAUUCUCGGGUGCCAA`: “RBNS enrichment (R)” 1.01.
Under “RBNS enrichment (R)”, `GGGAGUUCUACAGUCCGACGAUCCACACCCUGCAGGCAAAAGAAACCCCCAGCUUCCCCCCUCCCCGGGAGCCAGGUGGGAAAAGUGGGUGUGAUUUUUAGAUUUUGUAUUGUGGACUGAUUUUGCCUCACAUUGGAAUUCUCGGGUGCCAA` is recorded as 0.552.
For `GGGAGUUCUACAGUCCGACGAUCCCCGAGCGAGCCCGUGAAUCUACCUGACAACCAAGCUGUGACAUUCAAAGAGACAAGGGACUCGUUUCUACCCCUGGUAAUGCGAGGUGCUGCUUCUGUGUGUCAAGGCUUGGAAUUCUCGGGUGCCAA`, “RBNS enrichment (R)” read 0.243.
`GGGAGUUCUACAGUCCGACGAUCUGGGCCCUCCCACUUGCCUCUGCCACCUCCCCUCAUAGCUAUUCCUGGCUUGCUGUCUGCAAGGCCCAUGUGGGCCUUUUGGCUGAAGCAUUUGUAGAAGCAGCCAUCUUUGGAAUUCUCGGGUGCCAA`: “RBNS enrichment (R)” 0.673.
For `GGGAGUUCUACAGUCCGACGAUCAACUCGGUUAACAAAAGCCACUGGUAACUGAAGGUAUUUAAGCUAGGGUCAUUUGAAAGCUUCAGCCUCAGAAUGUGACCUUUAGUCAGGGCUGCAGAUAAAAAUAGGCAUGGAAUUCUCGGGUGCCAA`, “RBNS enrichment (R)” read 1.2.
`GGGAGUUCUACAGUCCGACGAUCACACUUCCACCCUUUUUUCUAAGUGUUCGUCUUUAGUUUUGAUUUUGGAAAGAUGUUAAGCAUUUAUUUUUAGUUAAAAAUAAAAACUAAUUUCAUACUAUUUAGAUUUUUGGAAUUCUCGGGUGCCAA`: “RBNS enrichment (R)” 0.776.
`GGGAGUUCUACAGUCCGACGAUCGAGGCCAUCUCUCUUCCAGAGAGAGGCAGCAUUGGCCCACAGGAUAAGCCUCAGGCCCUGGGAAACCUCCCGACCCCUGCACCUUCGUUGGAGCCCCUGCAUCCCCUGGGUGGAAUUCUCGGGUGCCAA` — result for “RBNS enrichment (R)”: 0.916.
`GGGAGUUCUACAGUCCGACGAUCAGGUGGAGAAGGCUUGUGCAGGUACAAACGACCUCAAGGACUGUGGCCUGCAACUGGAGACUGCUAAGCCCUGACGUCUGGUGCCGAGGUCGUCUGCAGGGUUUUGCCCUUGGAAUUCUCGGGUGCCAA` — result for “RBNS enrichment (R)”: 0.372.
`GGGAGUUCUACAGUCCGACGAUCGCUGGCUCAUUAUUUUCCUCAAAGCCUUCUGUCUUUCCUGUGCCUGCCUGUGACUCUUUGCACACUCUGUACUGAGUUUGGUGCUCCACCCAUUCACUGGGGUCAGGUGGUGGAAUUCUCGGGUGCCAA` — result for “RBNS enrichment (R)”: 1.88.
`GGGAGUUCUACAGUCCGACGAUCAGUACACUUUUGUUGAAGUUACAAAACCAGAAUGAGUAUGGCAAGUUCCAAGGGUCCCCAGUGCUUCCCAUUCAGCAUCCCCAGGGAGCCCCCAAAGGUACUGAAAAGUCUGGAAUUCUCGGGUGCCAA`: “RBNS enrichment (R)” 0.966.
`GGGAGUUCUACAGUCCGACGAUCCCUGGCCCUGUUCCUGGCAUAUGGCAAUGUACCCCAGGCUCAGGGAUCUCCCUUCCUUGAGGAUGUUCUUGGCAUGGUCCUGCCCUACCUCAUGGGAUGGGCAAUGCACAUGGAAUUCUCGGGUGCCAA`: “RBNS enrichment (R)” 0.544.

A few entries again (series 3):
`S10Q` — result for “normalised enrichment score”: 1.36.
`L3W`: “normalised enrichment score” 0.323.
`S10I`: “normalised enrichment score” 1.04.
`Q2M`: “normalised enrichment score” 3.1.
